{"data": "Results gathered from unrelated publications", "note": "Protocols differ between the studies behind these lines. ± marks the error that the study gave.", "sequence of UniProt Q96JM7 (whole entry, looked up)": "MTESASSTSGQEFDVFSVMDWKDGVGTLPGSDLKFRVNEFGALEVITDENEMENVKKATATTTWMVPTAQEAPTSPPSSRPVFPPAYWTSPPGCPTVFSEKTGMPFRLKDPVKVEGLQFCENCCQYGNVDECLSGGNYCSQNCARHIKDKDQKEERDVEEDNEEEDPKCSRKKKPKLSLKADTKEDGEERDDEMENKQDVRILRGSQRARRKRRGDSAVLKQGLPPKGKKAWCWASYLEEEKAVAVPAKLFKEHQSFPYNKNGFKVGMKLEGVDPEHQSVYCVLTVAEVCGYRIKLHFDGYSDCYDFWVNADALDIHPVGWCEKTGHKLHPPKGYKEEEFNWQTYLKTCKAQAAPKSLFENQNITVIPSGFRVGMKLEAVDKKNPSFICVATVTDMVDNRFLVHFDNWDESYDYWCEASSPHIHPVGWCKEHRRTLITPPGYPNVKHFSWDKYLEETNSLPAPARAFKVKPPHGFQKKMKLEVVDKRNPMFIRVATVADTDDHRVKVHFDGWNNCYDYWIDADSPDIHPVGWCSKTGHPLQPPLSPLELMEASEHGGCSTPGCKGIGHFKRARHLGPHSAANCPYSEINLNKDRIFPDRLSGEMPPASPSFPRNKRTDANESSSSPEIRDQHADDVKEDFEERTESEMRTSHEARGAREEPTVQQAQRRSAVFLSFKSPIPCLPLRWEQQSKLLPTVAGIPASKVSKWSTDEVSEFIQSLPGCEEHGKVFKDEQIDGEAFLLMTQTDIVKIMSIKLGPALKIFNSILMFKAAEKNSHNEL", "sequence of UniProt P08684 (whole entry, looked up)": "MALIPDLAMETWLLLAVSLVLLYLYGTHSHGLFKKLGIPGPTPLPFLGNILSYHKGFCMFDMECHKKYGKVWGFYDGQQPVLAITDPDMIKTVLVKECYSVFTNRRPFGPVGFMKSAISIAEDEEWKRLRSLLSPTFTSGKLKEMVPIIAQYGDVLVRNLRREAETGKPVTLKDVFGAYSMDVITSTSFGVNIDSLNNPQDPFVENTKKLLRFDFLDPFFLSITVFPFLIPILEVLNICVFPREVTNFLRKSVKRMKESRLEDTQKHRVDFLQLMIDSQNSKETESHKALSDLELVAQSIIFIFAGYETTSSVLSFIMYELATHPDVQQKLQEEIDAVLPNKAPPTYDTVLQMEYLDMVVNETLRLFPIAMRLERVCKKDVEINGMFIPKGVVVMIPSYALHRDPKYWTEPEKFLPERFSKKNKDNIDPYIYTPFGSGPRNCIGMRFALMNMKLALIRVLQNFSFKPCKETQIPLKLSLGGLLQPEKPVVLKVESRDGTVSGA", "sequence of UniProt O75795 (whole entry, looked up)": "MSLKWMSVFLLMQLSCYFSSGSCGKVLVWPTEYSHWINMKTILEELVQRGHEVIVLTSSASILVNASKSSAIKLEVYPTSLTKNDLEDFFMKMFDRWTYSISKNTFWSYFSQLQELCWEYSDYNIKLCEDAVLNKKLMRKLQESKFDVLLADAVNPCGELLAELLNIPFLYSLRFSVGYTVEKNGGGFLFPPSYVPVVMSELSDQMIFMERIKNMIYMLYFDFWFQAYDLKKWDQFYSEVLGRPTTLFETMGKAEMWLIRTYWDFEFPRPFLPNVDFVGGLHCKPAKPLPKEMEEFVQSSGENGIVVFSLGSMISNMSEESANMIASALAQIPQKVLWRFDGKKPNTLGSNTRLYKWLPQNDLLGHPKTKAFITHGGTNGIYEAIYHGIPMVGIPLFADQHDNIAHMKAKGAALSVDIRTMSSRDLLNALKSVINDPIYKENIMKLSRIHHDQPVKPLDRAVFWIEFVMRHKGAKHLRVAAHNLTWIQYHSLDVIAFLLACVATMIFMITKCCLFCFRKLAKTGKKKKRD", "sequence of UniProt O43704 (whole entry, looked up)": "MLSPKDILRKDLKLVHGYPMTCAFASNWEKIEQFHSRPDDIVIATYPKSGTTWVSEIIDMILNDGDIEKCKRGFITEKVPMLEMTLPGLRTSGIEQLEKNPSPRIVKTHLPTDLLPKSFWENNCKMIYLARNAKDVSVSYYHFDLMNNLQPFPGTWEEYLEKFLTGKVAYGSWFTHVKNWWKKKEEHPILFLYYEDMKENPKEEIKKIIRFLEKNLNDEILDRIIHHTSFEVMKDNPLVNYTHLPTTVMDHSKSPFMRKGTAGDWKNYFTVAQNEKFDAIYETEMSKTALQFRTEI", "sequence of UniProt O15244 (whole entry, looked up)": "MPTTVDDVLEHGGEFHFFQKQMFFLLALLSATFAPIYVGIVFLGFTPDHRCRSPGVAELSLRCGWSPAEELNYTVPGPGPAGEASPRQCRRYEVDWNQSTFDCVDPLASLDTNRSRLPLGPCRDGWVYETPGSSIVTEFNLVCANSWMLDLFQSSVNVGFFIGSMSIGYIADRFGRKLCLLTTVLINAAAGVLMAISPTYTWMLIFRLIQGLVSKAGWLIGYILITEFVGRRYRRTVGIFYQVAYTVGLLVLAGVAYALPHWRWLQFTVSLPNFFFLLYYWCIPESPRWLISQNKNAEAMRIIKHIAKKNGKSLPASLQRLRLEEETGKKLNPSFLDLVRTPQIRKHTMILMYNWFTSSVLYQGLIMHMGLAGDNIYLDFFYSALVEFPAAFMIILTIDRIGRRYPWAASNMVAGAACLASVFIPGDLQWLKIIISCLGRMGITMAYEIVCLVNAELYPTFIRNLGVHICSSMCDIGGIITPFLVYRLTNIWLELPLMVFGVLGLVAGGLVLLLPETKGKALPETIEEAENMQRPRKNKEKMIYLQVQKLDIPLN"}
{"SMILES": "CN(Cc1cccnc1)C(=O)c1ccc([C@H]2[C@@H](F)[C@@H](F)C[C@@H](F)[C@H]2F)cc1", "test": "hepatocyte stability", "system": "cryopreserved mouse hepatocytes", "setting": "1 µM", "quantity": "hepatic clearance", "value": "53 mL/min/kg"}
{"SMILES": "O=C1OC(c2ccccc2)=N/C1=C\\c1cccc(O)c1", "tested on": "bovine serum albumin", "test": "fructose-induced glycation, inhibitor, measured: fluorescent AGEs", "setting": "1600 ppm, 21 days, pH 7.4", "quantity": "inhibition", "value": "27.5%"}
{"SMILES": "CC(C)NC(=O)COc1cccc(-c2nc(Nc3ccc4[nH]ncc4c3)c3ccccc3n2)c1", "tested on": "UDP-glucuronosyltransferase 2B17 (UGT2B17, Homo sapiens, UniProt O75795)", "test": "enzyme activity, inhibitor", "system": "recombinant UGT microsomes", "setting": "added: testosterone", "quantity": "IC50", "value": "> 10 µM"}
{"SMILES": "CC[C@H]1[C@@H](O)[C@@H]2[C@H](CC[C@]3(C)[C@@H]([C@H](C)CCNC(=O)NS(=O)(=O)c4ccc(C(C)(C)C)cc4)CC[C@@H]23)[C@@]2(C)CC[C@@H](O)C[C@@H]12", "tested on": "Cytochrome P450 3A4 (CYP3A4, Homo sapiens, UniProt P08684)", "system": "human, plasma", "setting": "10 mg, day 1, compound alone", "quantity": "Tmax median", "value": "4 h"}
{"SMILES": "CCc1cc(/C(C)=N/OCc2ccc(C3CCCCC3)c(C(F)(F)F)c2)ccc1CN1CC(C(=O)O)C1", "tested on": "Solute carrier family 22 member 2 (SLC22A2, Homo sapiens, UniProt O15244)", "test": "inhibitor", "system": "HEK293 transfected with SLC22A2", "setting": "up to 24.3 µM, 5 min, added: MPP+ 0.025 µM", "quantity": "maximal inhibition", "value": "20.9%"}
{"SMILES": "C/C(O)=C(\\C#N)C(=O)Nc1ccc(C(F)(F)F)cc1", "tested on": "human BCRP", "system": "MDCK-II cells expressing BCRP", "setting": "5 µM, added: Ko143 1 mol/L", "quantity": "efflux ratio", "value": 1.44}
{"SMILES": "N#CCC(=O)Nc1ccc(C2CCCCC2)cc1", "test": "hepatocyte stability", "system": "cryopreserved human hepatocytes", "setting": "1 µM", "quantity": "hepatic clearance", "value": "19 mL/min/kg"}
{"SMILES": "O=C(c1ccc(C(=O)N2CCC(N3CCCC3)CC2)c(Nc2ccccc2)c1)N1CCC(N2CCCC2)CC1", "tested on": "Lethal(3)malignant brain tumor-like protein 3 (Homo sapiens, UniProt Q96JM7)", "test": "FRAP", "system": "human cells", "setting": "0.01 µM", "quantity": "FRAP recovery half-time", "value": "23.8 s"}
{"SMILES": "Cc1nc(-c2cnc(NC(C)C)n(C)c2=O)ccc1Oc1ccnc(-c2cnn(C)c2)c1", "tested on": "CYP3A4/5, human", "test": "inhibitor", "setting": "30 min, metabolism-dependent, NADPH preincubation", "quantity": "IC50", "value": "> 100 µM"}
{"SMILES": "CCOc1c([C@H](C)n2nc(C)c3c(N)ncnc32)cc(Cl)c(F)c1[C@@H]1CNC(=O)C1", "system": "human B-cell malignancy patients", "setting": "oral, all doses, baseline below threshold", "quantity": "observations with PR >220 ms", "value": "1.6%"}
{"SMILES": "COc1cc(O)c(CC=C(C)C)c2c1C(=O)CC(c1ccc(O)cc1)O2 (stereo not drawn)", "tested on": "CYP2D6 (human)", "test": "enzyme activity, inhibitor", "system": "human liver microsomes", "setting": "10 µM, pH 7.4, added: dextromethorphan", "quantity": "inhibition", "value": "< 10%"}
{"SMILES": "C=CC(=O)N1C[C@H](Nc2ncnc3[nH]ccc23)CC[C@@H]1C", "tested on": "CYP3A", "test": "substrate", "system": "human, plasma", "setting": "oral, 30 mg single dose, cpd alone", "quantity": "Tmax", "value": "0.5 h"}
{"SMILES": "COc1cc(O)c(CC=C(C)C)c(O)c1C(=O)/C=C/c1ccc(O)cc1", "tested on": "CYP2D6 (human)", "test": "enzyme activity, inhibitor", "system": "human liver microsomes", "setting": "1 µM, pH 7.4, added: dextromethorphan", "quantity": "inhibition", "value": "< 10%"}
{"SMILES": "Cc1ccnc([18F])c1-c1cccc(N2C[C@H](N3CCN(C(=O)c4nccs4)CC3)CC2=O)c1", "tested on": "monoacylglycerol lipase", "test": "PET, arterial input", "system": "rhesus monkey, brain cerebellum", "setting": "intravenous, baseline", "quantity": "VT", "value": "6.85 mL/cm3"}
{"SMILES": "COc1cc2c(CCNC(C)=O)c[nH]c2cc1O", "tested on": "Sulfotransferase 1B1 (SULT1B1, Homo sapiens, UniProt O43704)", "test": "substrate, sulfation, purified enzyme", "setting": "10 µM, 10 min, pH 7.0, 37 °C", "quantity": "specific activity", "value": "0.32 ± 0.02 nmol/min/mg"}
{"note": "A few entries again:"}
{"SMILES": "COc1cc2c(CCNC(C)=O)c[nH]c2cc1O", "tested on": "Sulfotransferase 1B1 (SULT1B1, Homo sapiens, UniProt O43704)", "test": "substrate, sulfation, purified enzyme", "setting": "10 µM, 10 min, pH 7.0, 37 °C", "quantity": "specific activity", "value": "0.32 ± 0.02 nmol/min/mg"}
